# Experimental data pooled from the literature.
# Numbered parts are unrelated; each lists some results of a single study.

# Set 1 — technique: RNA Bind-n-Seq; form: RNA; medium: in vitro; concentration: 200 nM; notes: whole 134-nt RNA, ends assumed; together with: 150 mM LiCl; baseline: input library; reading: higher = stronger binding; all molecules: 7-deaza-guanosine replaces G
# Target: Fragile X messenger ribonucleoprotein 1, C-terminal low-complexity region (Fmr1, Mus musculus, UniProt P35922)
Sequence,log2 enrichment
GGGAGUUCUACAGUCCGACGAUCUUUUUGAAUCAAUUUUUAAAACAUGCCAUUGUGUUUCAGGCUCGCGGGAUUGAUGUGCAACAAGUGUCUUUGGUUAUAAAUUAUGAUCUAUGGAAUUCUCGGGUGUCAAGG,-1.37
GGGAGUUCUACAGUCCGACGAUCCACAGACAACACGCACCCACACAGACACAGAGGGAAGGGGUUGGGAUGGGGACAGGGUGCACAGCAGGGCGGGGUAGGACCCCCGCCCCUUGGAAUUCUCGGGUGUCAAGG,-0.995
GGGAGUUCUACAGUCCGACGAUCCAAGUCCUGUGCUACACAUCGUAUGUACCGAAUCGGUUUGGUUUUUGGAAAAAGGAAAGUAUUAUGUUACGCCGUUCGGAUCUGCACUUCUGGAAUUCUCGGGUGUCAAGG,-1.1
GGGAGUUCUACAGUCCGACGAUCUCAAGUCCUGUGCUACACAUCGUAUGUACCGAAUCGGGGAGGGGUGGGGAGGGGAAAGUAUUAUGUUACGCCGUUCGGAUCUGCACUUCCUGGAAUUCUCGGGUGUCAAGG,-0.0787
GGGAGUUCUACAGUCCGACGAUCUGGGAGGUGGAUUUUGUUUAUUUUUUUAGCUCAUAUCCAGGGGUGGGAAUUUUUUUUUAAUAUGUGUCAUGAAUAAAGUUGUUUUUGAAAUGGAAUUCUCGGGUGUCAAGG,0.699
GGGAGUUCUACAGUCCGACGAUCUGGCCCUGGUGGCAUGCGGGGAGGAAGAGGUGGCCUCAUGGAUCGUGGUGGUCCCGGUGGAAUGUUCAGCGGUGGCCGUGGUGGAGACAGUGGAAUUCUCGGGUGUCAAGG,-0.626
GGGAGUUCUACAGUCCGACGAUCUCCUGUGCUACACAUCGUAUGUACCGAAUCGGGGUUUUUUGGGUUUUUUGGUUUUUUGGAAAGUAUUAUGUUACGCCGUUCGGAUCUGCAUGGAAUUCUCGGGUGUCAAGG,-0.3
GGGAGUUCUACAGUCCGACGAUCAGUCCUGUGCUACACAUCGUAUGUACCGAAUCGGGGAAAGGGGUUUUUGGGGUGGGGAAAGUAUUAUGUUACGCCGUUCGGAUCUGCACUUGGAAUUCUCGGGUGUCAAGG,-0.631
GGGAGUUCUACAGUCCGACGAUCCUCAAGUCCUGUGCUACACAUCGUAUGUACCGAAUCGGGAAGGGGAAGGAAGGAAAGUAUUAUGUUACGCCGUUCGGAUCUGCACUUCCAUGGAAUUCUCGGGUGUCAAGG,-0.944
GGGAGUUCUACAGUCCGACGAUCUCCUCAAGUCCUGUGCUACACAUCGUAUGUACCGAAUCGGGGAGGAGGGAGGAAAGUAUUAUGUUACGCCGUUCGGAUCUGCACUUCCAGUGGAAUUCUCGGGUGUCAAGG,-0.551
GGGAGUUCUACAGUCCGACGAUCUGGGAGGUGGAUUUUGUUUAUUUUUUUAGCUCAUUUCCAGGGGUGGGAAUUUUCUUUUAAUAUGUGUCAUGAAUAAAGUUGUUUUUGAAAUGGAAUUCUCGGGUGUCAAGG,-0.781

# Set 2 — technique: RNA Bind-n-Seq; form: RNA; medium: in vitro; concentration: 365 nM; baseline: no-protein control; reading: higher = stronger binding
# Target: RNA binding protein fox-1 homolog 2, RRM domain, GST-SBP tag (RBFOX2, Homo sapiens, UniProt O43251-10, residues 100-194)
# Notes: natural RNA segment, single round, ends assumed
# Target sequence (chain): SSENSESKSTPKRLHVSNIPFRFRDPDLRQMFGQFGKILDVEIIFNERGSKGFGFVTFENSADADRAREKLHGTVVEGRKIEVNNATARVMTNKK
Sequence,RBNS enrichment (R)
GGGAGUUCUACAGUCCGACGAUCACAAAUGUGAAUCAAGCAGUCCGGCAUUCUGGAAAGCCUUGGCAUGGUUCUGUAAAGCUCUUGUACCGCUGGAGAAACGGCAUCACUAUAAGCUAUGAGUUGAACUGUUUUGGAAUUCUCGGGUGCCAA,0.507
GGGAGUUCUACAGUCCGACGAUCCAGCAACAGAACACUUGACCUUAAAAGUCUCUUCUGGUCUUUGGAUUAGAAAAGGCUUAUGUUAGCAUAGCUUAAGAGCAACCUCAGAGAUUUGAGCCCUACUAAGUGACUGGAAUUCUCGGGUGCCAA,0.363
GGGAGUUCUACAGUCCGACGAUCUGAAUCUUGAAGGAAGAAGAUGAAUCAGAUGAUGACAAUAUGUAAUAUUUUCUUCCCCAUCCGCUGGUUUACAUUUCUGUAACAGUUGCAUAUGGCUAGCACCAUGGACUUGGAAUUCUCGGGUGCCAA,0.653
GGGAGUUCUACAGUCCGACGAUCAUGAUGUGAUUUUGGGGGGUUUCAGGUACCUAAGCAUGAUUUUUAAAAUCACUUCUCUCUUUACAUAUUUCGAACAUAUGUUUGCUUUCUACACUUUGCAGAUUUUAUUUUGGAAUUCUCGGGUGCCAA,7.01
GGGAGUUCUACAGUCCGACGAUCCACCAAUGAGUGAAAGGGAUCGUGGGUCAGGGACACCGAGAGAGUGAGGUCACUUCCACUUCAAACCUUCAGUGAGGGGGUGGGAUGGAGAGAAUGCUGAAUCUUUUUUUUGGAAUUCUCGGGUGCCAA,0.294
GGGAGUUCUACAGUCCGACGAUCACUUGGGUAUUUCUCAGUUAACACACAUGCAAGGAGGAAGAGAGUUUUUUUGAACAAAAUGACUGGCUUUGACAAAACUAUCUUGCUCUUUUUAAAUGUCACUUGAUACUUGGAAUUCUCGGGUGCCAA,0.508
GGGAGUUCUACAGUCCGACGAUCUGUGCAGCCUGGGCUGCUGUCAUUGCCCUCCAGUAAGGGCUCAGGGUUUUGCUUUUAGUCUCCCCUUCCUUCUGCCUUGGGGGCGGUACUCUGUGGAGCUGCUUAGGCCUUGGAAUUCUCGGGUGCCAA,0.382
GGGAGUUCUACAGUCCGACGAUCGGUCCCUUGAGCCAAAGGCCUACCAUCUGCUCGAGGAGUCCCCAUGUCCCUUGGCUGCUCUCGGGUCUUCCUGUCAGGUCUGUCCAGUUGUGGGGUGGUAGUGUGAAUGGUGGAAUUCUCGGGUGCCAA,1.01
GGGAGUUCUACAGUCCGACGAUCAGAGCGAGACUCCAUCUACCAGAUCCUUAUGACGCAGCUGAUGCCUGCCUUGGUUCCUACCACUCUGGUGUAGACAGAGGACUUUGUCCAAGUCUCACACUAAACAUGCCUGGAAUUCUCGGGUGCCAA,0.624
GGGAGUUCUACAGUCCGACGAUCCAACGCCAAGAUCAUGAUUCGGGGGAAAGGAUCAGUGAAAGAAGGGAAAGUUGGGCGUAAAGAUGGUCAGAUGUUGCCAGGCGAAGAUGAGCCUCUUCAUGCUCUAGUCAUGGAAUUCUCGGGUGCCAA,1.17
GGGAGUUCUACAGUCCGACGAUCGACUUUCUGUGCAGGAAUCAGUGUUGCUUGAGCGUGUGGCUGUAUUCACUGACAAGAGAAUAGAAACAAUAUGCCCACAUUGCUAUGUUUAUAAUUGCCAGAGCAGUAUUUGGAAUUCUCGGGUGCCAA,1.23
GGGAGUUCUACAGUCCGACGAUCGGCUACCUCCUCUGACAUGCGGUCAGAUAAGUCCCGUCUUGUUUGUGAGUACCACAGAAACGCCUGAGAGUCACUUACCCGGCCACUGCUUGGAAGGUUUCCCUCCGGGGUGGAAUUCUCGGGUGCCAA,0.349

# Set 3 — technique: protein binding microarray; form: double-stranded DNA, one strand shown; medium: in vitro; concentration: not given; baseline: not given; reading: higher = stronger binding
# Target: Histone acetyltransferase KAT6A, winged helix 2, GST fusion (KAT6A, Homo sapiens, UniProt Q92794, residues 85-181)
# Notes: 8-mer, flanks averaged, mean of 2 arrays, mostly near background
# Target sequence (chain): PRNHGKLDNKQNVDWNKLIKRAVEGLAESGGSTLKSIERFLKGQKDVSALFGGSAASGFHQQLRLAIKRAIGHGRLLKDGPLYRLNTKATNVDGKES
Sequence,E-score
TAGATTAA,0.166
CCAGGAAC,-0.0478
ATCGTAGA,-0.106
CTATACTA,-0.0644
GCAAGAGA,0.07
CGGTCCCC,0.141
TAGTCAAA,-0.113
CTAACGTA,-0.0433
ATCGTATA,-0.0177
ACGCACTG,0.0898
ACCAGCCC,0.153
GAGGCTCA,-0.0457
GCTCCACC,0.113
GTACGCAA,-0.0207
CTATACAG,-0.0612
CCAGTGGC,0.0675
ACATTGTG,-0.143
CCTAGACC,-0.137
GTCCCTGA,-0.193
AGGAGGTA,-0.0709
AGTTCTAT,-0.0433
CTATATTC,-0.0888

# Set 4 — technique: protein-binding microarray; form: double-stranded DNA, one strand shown; medium: in vitro; concentration: 2200 nM top; notes: 60-bp whole probe; together with: salmon DNA 0.4 mg/ml; baseline: random background probes; reading: higher = stronger binding; constant ends, left off below: GCCTAGCAC … GTCTTGATTCGCTTGACGCTGCTG
# Target: Interferon regulatory factor 7, full length, phosphomimetic (IRF7, Homo sapiens, UniProt Q92985, residues 1-503, S471D/S472D/S475D/S476D/S477D/S483D/S484D/S487D)
# Residues (chain): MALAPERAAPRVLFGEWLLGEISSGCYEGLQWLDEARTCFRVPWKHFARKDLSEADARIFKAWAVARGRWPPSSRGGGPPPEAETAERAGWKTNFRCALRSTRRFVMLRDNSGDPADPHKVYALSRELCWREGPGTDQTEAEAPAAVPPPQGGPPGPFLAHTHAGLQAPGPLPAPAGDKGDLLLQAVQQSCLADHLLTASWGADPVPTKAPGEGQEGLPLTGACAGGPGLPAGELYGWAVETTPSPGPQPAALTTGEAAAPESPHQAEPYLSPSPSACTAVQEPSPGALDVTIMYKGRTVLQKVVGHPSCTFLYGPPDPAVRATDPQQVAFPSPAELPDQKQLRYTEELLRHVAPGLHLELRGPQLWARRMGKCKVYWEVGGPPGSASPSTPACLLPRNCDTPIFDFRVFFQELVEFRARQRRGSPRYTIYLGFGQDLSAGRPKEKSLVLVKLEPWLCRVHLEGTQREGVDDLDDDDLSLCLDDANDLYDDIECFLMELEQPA
Sequence,fitted relative affinity
TCATTTTGCCCTATTTAACTGTGCTAG,2.8 z-score
GAAGAACTGAGTATCGAGACGTGCTAG,-0.582 z-score
GGAGAGTTCCAGGAGGTCGAGTGCTAG,-0.648 z-score
TGAGATATCAGTTTCGATTAGTGCTAG,5.57 z-score
TCATTTTTCTCACCACATACTGTGCTA,2.19 z-score
TTAGGTTCCCTTTTCCTTGAGTGCTAG,2.64 z-score
TGTGTTTTAAATAGGGCAAAGTGCTAG,-0.129 z-score
GACGGTATCGGTACTGGGGACGTGCTA,-0.21 z-score
TGAGGACTGGGGACTGGGTTAGTGCTA,-1.02 z-score
TTAGATCTCAGAGTGGATTAGTGCTAG,-0.22 z-score
TTAGATTTCAGTTTCGAATAGTGCTAG,4.02 z-score
GACGGTTTCGGGTCTCGGGACGTGCTA,8.11 z-score
AACGAACTGAGACTGGAGACGTGCTAG,-0.344 z-score
ACGTCTTCATGTTTTTTTCTGTGCTAG,1.82 z-score
TTACGTATCGACTTTCGGTTAGTGCTA,7.14 z-score
GACGGACTTGGTTTCGGGACGTGCTAG,2.72 z-score
TTAGGACTGGGGTATCGGGTAGTGCTA,-0.764 z-score
TTAGGACTGCATTTCCTTTAGTGCTAG,0.562 z-score
GACGAACTGAGTTTCGACACGTGCTAG,1.72 z-score
TTAGAACTGCGTATCGATTAGTGCTAG,-0.242 z-score
TTAGGTATCGACTGTCGGTTAGTGCTA,0.331 z-score

# Some of these lines once more (set 4):
Sequence,fitted relative affinity
TGTGTTTTAAATAGGGCAAAGTGCTAG,-0.129 z-score
GACGGTATCGGTACTGGGGACGTGCTA,-0.21 z-score
TGAGGACTGGGGACTGGGTTAGTGCTA,-1.02 z-score
TTAGATCTCAGAGTGGATTAGTGCTAG,-0.22 z-score
TTAGATTTCAGTTTCGAATAGTGCTAG,4.02 z-score
GACGGTTTCGGGTCTCGGGACGTGCTA,8.11 z-score
AACGAACTGAGACTGGAGACGTGCTAG,-0.344 z-score
ACGTCTTCATGTTTTTTTCTGTGCTAG,1.82 z-score
